# Published values pooled from the literature.
# Each line is one published result; not all experiments were run side by side. ± gives the spread as reported.
# Rc3h1: Rc3h1 411-454 (Mus musculus, UniProt Q4VGL6)
# Chain of UniProt Q4VGL6 (whole entry, looked up): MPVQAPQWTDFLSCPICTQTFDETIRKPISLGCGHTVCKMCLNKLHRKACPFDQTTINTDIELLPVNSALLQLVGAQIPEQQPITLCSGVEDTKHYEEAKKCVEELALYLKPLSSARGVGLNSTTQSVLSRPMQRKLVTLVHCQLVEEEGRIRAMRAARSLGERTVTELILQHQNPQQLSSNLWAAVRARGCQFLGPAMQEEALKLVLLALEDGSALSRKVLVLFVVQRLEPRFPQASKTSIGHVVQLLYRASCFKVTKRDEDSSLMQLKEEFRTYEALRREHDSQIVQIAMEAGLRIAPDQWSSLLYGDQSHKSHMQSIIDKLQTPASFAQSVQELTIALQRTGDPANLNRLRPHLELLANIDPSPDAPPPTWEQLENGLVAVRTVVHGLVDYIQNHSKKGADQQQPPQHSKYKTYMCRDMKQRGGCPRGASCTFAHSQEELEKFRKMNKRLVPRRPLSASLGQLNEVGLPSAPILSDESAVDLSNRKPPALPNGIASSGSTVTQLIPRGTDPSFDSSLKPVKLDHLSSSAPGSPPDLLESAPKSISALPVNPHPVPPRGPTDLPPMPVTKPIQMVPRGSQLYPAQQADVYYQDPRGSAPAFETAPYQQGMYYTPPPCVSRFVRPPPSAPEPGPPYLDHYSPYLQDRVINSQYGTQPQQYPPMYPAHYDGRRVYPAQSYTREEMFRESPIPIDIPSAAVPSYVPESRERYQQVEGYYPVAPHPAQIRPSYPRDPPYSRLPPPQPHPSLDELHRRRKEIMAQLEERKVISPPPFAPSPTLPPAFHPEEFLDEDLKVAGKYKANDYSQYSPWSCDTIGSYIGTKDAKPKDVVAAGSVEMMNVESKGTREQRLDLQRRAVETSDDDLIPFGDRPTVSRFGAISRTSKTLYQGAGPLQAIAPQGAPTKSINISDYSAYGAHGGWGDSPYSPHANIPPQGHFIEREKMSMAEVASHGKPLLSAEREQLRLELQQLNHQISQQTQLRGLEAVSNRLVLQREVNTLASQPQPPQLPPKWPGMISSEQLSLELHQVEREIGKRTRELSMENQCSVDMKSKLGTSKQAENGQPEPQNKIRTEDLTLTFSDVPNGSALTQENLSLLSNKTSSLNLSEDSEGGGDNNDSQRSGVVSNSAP
# Yku70/Yku80: Yku70/Yku80 (Saccharomyces cerevisiae)
# T1: Yku70/Yku80 (Saccharomyces cerevisiae); chain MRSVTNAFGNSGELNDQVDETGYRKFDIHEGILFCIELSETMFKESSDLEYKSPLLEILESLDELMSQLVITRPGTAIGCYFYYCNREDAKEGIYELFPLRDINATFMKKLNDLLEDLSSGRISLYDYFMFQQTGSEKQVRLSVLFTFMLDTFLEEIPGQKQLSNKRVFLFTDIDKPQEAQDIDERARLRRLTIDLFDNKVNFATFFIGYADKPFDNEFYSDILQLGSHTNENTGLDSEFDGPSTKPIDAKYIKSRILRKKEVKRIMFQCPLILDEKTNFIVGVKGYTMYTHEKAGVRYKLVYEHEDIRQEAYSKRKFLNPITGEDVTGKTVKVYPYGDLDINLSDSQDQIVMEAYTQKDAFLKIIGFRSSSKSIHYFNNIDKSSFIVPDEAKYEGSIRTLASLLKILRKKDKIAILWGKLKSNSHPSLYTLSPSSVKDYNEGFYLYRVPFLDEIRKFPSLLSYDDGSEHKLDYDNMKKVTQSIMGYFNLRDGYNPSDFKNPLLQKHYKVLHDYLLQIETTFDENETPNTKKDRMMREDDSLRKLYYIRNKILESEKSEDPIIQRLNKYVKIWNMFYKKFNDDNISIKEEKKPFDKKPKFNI; chain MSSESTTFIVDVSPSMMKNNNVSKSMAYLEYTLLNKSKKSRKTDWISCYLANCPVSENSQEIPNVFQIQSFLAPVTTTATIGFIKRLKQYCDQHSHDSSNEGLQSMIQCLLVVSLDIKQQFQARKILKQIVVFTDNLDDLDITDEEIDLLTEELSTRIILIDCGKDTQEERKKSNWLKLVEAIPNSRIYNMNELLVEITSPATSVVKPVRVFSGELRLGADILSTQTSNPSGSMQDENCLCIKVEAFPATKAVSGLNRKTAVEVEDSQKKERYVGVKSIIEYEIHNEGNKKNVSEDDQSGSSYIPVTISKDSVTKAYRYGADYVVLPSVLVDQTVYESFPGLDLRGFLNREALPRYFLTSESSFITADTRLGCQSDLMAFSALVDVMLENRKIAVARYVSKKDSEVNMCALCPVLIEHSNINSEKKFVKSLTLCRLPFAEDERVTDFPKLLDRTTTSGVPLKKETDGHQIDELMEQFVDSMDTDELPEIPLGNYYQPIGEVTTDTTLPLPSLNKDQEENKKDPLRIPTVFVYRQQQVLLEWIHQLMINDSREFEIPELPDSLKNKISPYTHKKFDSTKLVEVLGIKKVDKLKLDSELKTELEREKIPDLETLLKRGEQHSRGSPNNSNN
# Chain of UniProt Q9SM50 (whole entry, looked up): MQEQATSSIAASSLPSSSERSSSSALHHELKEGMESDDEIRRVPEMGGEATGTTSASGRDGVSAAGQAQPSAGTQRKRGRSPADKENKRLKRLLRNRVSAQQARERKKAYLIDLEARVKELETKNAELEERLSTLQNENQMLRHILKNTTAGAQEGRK
# Chain of UniProt P25454 (whole entry, looked up): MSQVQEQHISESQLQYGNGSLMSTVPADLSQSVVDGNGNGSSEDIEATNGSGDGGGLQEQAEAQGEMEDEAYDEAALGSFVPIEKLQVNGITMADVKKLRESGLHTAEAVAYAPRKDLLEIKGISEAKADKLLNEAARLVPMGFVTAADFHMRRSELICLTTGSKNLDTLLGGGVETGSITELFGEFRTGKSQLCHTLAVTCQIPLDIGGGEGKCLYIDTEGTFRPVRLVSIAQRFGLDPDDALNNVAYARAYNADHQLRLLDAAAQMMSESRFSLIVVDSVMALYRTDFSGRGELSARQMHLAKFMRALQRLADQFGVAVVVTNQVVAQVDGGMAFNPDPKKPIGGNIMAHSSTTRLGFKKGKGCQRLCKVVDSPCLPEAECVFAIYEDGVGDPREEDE
# Chain of UniProt P32787 (whole entry, looked up): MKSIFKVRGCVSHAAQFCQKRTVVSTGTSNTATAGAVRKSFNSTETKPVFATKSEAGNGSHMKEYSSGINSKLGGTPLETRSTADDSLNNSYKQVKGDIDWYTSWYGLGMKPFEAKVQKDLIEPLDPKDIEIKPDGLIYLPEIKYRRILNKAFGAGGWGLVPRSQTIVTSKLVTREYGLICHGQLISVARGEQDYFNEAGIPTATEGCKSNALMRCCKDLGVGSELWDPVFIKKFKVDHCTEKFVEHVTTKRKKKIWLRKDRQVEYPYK
# Chain of UniProt P92973 (whole entry, looked up): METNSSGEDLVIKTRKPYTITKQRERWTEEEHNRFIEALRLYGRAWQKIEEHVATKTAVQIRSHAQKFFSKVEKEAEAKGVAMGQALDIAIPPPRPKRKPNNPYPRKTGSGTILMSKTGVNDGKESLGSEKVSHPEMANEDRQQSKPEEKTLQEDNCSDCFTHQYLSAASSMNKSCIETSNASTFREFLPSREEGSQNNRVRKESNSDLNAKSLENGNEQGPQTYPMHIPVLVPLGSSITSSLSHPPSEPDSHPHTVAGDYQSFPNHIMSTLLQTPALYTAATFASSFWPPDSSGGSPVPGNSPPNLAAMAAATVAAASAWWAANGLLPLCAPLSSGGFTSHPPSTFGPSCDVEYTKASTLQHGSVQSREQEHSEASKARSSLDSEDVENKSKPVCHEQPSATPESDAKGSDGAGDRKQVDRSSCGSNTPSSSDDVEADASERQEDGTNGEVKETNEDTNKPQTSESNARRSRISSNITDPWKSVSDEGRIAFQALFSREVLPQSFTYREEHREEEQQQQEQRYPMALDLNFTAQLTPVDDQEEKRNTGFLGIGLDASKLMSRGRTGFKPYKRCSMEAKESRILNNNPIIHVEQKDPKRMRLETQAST
# Chain of UniProt Q9Y3Z3 (whole entry, looked up): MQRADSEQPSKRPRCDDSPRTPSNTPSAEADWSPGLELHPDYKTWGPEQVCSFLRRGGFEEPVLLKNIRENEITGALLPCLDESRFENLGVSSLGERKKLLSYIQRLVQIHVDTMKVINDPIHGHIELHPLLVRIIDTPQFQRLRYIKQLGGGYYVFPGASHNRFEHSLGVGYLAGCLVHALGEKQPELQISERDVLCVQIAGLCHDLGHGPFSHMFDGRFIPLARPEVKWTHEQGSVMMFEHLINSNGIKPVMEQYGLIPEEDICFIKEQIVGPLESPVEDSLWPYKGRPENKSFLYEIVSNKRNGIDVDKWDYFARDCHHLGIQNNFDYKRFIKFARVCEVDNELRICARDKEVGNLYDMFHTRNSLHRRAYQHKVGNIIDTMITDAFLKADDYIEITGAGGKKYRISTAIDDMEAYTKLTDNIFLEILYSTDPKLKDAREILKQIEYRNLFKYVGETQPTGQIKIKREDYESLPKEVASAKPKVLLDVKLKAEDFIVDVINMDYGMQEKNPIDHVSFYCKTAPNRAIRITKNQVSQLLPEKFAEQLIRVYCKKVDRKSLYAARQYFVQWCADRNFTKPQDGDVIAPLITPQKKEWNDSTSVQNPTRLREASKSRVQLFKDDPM
# Chain of UniProt P0A7G6 (whole entry, unmodified, looked up): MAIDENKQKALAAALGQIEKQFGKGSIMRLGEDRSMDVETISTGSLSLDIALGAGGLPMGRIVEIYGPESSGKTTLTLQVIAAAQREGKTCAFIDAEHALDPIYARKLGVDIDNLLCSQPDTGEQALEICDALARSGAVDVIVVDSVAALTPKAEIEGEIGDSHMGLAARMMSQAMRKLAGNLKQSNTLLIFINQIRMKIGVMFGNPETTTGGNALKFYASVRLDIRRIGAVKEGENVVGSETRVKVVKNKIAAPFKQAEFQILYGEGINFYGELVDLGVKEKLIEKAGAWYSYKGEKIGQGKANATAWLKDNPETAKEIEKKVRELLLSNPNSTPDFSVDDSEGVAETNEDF
# Chain of UniProt Q9RYE6 (whole entry, looked up): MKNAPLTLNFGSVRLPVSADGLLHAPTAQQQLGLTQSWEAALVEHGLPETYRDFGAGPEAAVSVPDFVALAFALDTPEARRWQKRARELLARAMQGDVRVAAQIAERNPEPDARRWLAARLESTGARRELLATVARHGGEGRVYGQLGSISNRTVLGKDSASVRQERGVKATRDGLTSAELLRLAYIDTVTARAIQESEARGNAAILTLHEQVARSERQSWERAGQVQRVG
# Chain of UniProt P0AGE0 (whole entry, looked up): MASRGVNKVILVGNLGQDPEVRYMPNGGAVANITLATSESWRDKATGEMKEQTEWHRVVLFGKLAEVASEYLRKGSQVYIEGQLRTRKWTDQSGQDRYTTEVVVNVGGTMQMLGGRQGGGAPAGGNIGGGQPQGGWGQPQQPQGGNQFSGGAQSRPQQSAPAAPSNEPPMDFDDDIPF
Molecule,target or system,test,test system,setting,how to read,endpoint,result
AGATTTGCTCTCTGTCACAGGTGTCTCCGT (dsDNA),"Opaque endosperm 11 1-624 (Zea mays, UniProt A0A1D6EAS7)",EMSA,"double-stranded DNA, one strand shown",with: Mg2+,,binding,no binding
GCAGCUCGGGGAUCAUGGCCCACUGAACCCCCAAGCGC (structured RNA),"NFKBIA 5-63 (Homo sapiens, UniProt P25963)",NMR,folded RNA,,,binding,no binding
ACCAAGCGGGAAGCGGAGCCGCCGCCGCCGCCG (dsDNA; blunt),WT1 zinc finger domain 323-435 (Homo sapiens),EMSA,"double-stranded DNA, one strand shown",,,binding,no binding
AACGACGTTTGGTCAGTTCCATCAACATCATAGCCAGATGCCCAGAGATTAGAGCGCATGACAAGTAAAGGACGGTTGTCAGCGTCATAAGAGGTTTTAC (ssDNA),"RAD51 1-400 (Saccharomyces cerevisiae, UniProt P25454)",cryo-EM,single-stranded DNA,"with: ADP-AlF3, Mg2+",,binding,binds
ACCAAGCGGTATGCGGAGCCGCCGCCGCCGCCG (dsDNA; blunt),WT1 zinc finger domain 323-435 (Homo sapiens),EMSA,"double-stranded DNA, one strand shown",,,binding,no binding
CTCATTACACAGTCTTAGTCACATCGGTGAAAATATCAATTAATATTCCCCAGAAAGTTG (dsDNA),"CCA1 full length assumed (Arabidopsis thaliana, UniProt P92973)",EMSA,"double-stranded DNA, one strand shown",,,binding,binds
TTACTCAACCGTAACCGATTTTGCCAGGTTACGCGG (dsDNA),"tnsD full length assumed (Escherichia coli, UniProt P13991)",EMSA,"double-stranded DNA, one strand shown",,,binding,binds
GATCATGCAGGACAGTCGGATCGCAACCTGATTTACTGTGTCATATAGTACGTGATTCAG (ssDNA),"gene 32 protein 1-301 (bacteriophage T4, UniProt P03695)",EMSA,single-stranded DNA,"no ATP, with: Mg2+ 10 mM",,binding,binds
GGTGGTGGTGGTGGTGGT (ssDNA),"recA full length assumed F204M (Escherichia coli, UniProt P0A7G6)",fluorescence anisotropy,single-stranded DNA,with: ATPγS,,binding,binds
UUUUUUUUUUUUUUUUUUUUUUUUUUUUUUUUUUUUUUUU (ssRNA),"NR1I2 (Homo sapiens, UniProt O75469)",EMSA,RNA,200 nM RNA,,binding,no binding
TTATATTT (ssDNA),Rc3h1,NMR,single-stranded DNA,,,binding,binds
TTAGCAAAATACGTTTCAACTTCT (dsDNA),"HY5 full length assumed (Solanum lycopersicum, UniProt Q9SM50)",EMSA,"double-stranded DNA, one strand shown",,,binding,binds
ACCAAGCGGGATTCGGAGCCGCCGCCGCCGCCG (dsDNA; blunt),WT1 zinc finger domain 323-435 (Homo sapiens),EMSA,"double-stranded DNA, one strand shown",,,binding,no binding
DNA 1 TTGATAAGAGGTCATTTTTGCGGATGGCTTAGAGCTTAATTGCTGAATCTGGTGCTGTAGCTCAACATGTTTTAAATATGCAATGAC / DNA 2 TTAAAACATGTTGAGCTACAGCACCAGATTCAGCAATTAAGCTCTAAGCCATCCGCAAAAATGACCTCTTATCAA (dsDNA; 3' 12 nt overhang),"MGM101 23-269 (Saccharomyces cerevisiae, UniProt P32787)",native MS,double-stranded DNA,,,binding,binds
TTTTTTTTTTTTTTTTTTTTTTTTTTTTTTTTTTTTTTTTTTTTTTTTTTTTTTTTTTTTTTTTT (ssDNA),"ssb 2-178 (Escherichia coli, UniProt P0AGE0)",EMSA,single-stranded DNA,with: ATPγS,,binding,binds
AATTAGTCGCCACGTGTTTTACTTTA (dsDNA),"HY5 1-158 (Solanum lycopersicum, UniProt Q9SM50)",EMSA,"double-stranded DNA, one strand shown",,,binding,binds
TAATTTTAAACAAAATATTAACAATTCCCCGCGAACCCTTGTGAATAATATTTAAAACTT (dsDNA),"LHY full length assumed (Arabidopsis thaliana, UniProt Q6R0H1)",EMSA,"double-stranded DNA, one strand shown",,,binding,no binding
AAGGTGTGTGGGTGTGGTAAT (dsDNA),"T1, Yku70/Yku80 (Saccharomyces cerevisiae)",EMSA,"double-stranded DNA, one strand shown",without Rap1,,binding,binds
ATAAGTCACATGATGATATTTGATTTTATTATATTTTTAAAAAAAGTAAAAAATAAAAAGTAGTTTATTTTTAAAAAATAAAATTTAAAATATTTCACAAAATGATTTCCGAA (dsDNA),"CENP-I 1-229 K189E/K209E/R216D/R225D/R226D (Thermochaetoides thermophila, UniProt G0SFF7)",EMSA,"double-stranded DNA, one strand shown",,,binding,no binding
UGUGUGUGUGUGUGUG (ssRNA),"EIF4A1 1-406 (Homo sapiens, UniProt P60842)",fluorescence polarization,RNA,"with: silvestrol 10 µM, ATP",,binding,binds
"DNA 1 CACTGGCCGTCTTACGGTCGCTCTGCTCGACG / DNA 2 CGACCGTAAGACGGCCAGTG (dsDNA; 20 bp, 3' 12 nt overhang)","RECQL 63-592 R203A (Bos taurus, UniProt A0JN36)",fluorescence anisotropy,double-stranded DNA,with: Mg2+ 3 mM,,Kd,6.8 ± 1.3 nM
GTGTGGTTAATATGGTGTGGTTAATATGGTGTGGTTAATATGGTGTGGTTAATATG (ssDNA),"RNJ 604-911 (Arabidopsis thaliana, UniProt Q84W56)",EMSA,single-stranded DNA,,,binding,no binding
colistin,Enterobacter cloacae,broth microdilution,clinical isolate RKI-No_348/15,,,MIC,≤ 0.5 µg/mL
"DNA 1 ATTGCCGATGC / DNA 2 CCGCAGGCTCC / DNA 3 GGAGCCTGCGGGCATCGGCAAT (dsDNA; blunt, internal nick)","ddrC 1-231 (Deinococcus radiodurans, UniProt Q9RYE6)",EMSA,double-stranded DNA,100 nM,,binding,binds
GTGGTGTGTGGGTGTGTGTGT (dsDNA),"T1, Yku70/Yku80 (Saccharomyces cerevisiae)",cryo-EM,"double-stranded DNA, one strand shown",,,binding,binds
GTGACAATGCTATTTGGCCATGTCGGTATGGTTGGCGTTAGGGGTGA (dsDNA),"DREB1A 1-238 (Oryza sativa, UniProt Q64MA1)",EMSA,"double-stranded DNA, one strand shown",,,binding,binds
GGTTAGGGTTAG (ssDNA; 5'-phosphate),"POT1 1-299 R80A (Homo sapiens, UniProt Q9NUX5)",EMSA,single-stranded DNA,,,binding,binds
ATTTTTTT (ssDNA),Rc3h1,NMR,single-stranded DNA,,,binding,binds
QGRWDHETIV,human MAGI1-3/6 PDZ construct (MBP fusion),automated holdup,"peptide, crude extract","concentration not given, corrected by standard peak, unit not given","relative to: biotin control resin, higher = stronger binding",binding intensity,0.329
CAGAATGGAAGAGAGAATAATCAGAGAGGAAGAGAATTTTCATTC (dsDNA),"gbp (Glycine max, UniProt Q8LKV1)",EMSA,"double-stranded DNA, one strand shown",,,binding,binds
DNA 1 GCAGCCAACTAAACTA / DNA 2 TAGTTTAGTTGGCTG (dsDNA; 5' 1 nt G overhang),"tnsE 379-538 (Escherichia coli, UniProt P05845)",EMSA,double-stranded DNA,,,binding,binds
GSGAGPETLV,human MAGI1-3/6 PDZ construct (MBP fusion),automated holdup,"peptide, crude extract","concentration not given, uncorrected, unit not given","relative to: biotin control resin, higher = stronger binding",binding intensity,0.613
GTGTTCGGACTCTGCCTCAAGACGGTAGTCAACGTGCTTG (dsDNA),"XRS2 1-325 K35E (Saccharomyces cerevisiae, UniProt P33301)",EMSA,"double-stranded DNA, one strand shown",abolished,,binding,no binding
AGTCCGGGGGTTCCGTTAATGTTTAATCAGATAGGATC (dsDNA),"HNF1A 1-631 (Homo sapiens, UniProt P20823)",SPR,"double-stranded DNA, one strand shown",without NaHS,,binding,binds
GCTAGTTGGCGCGCGTGAACCCGCCGTTCGGGAAATTGCGT (dsDNA; blunt),"rcoM1 full length assumed (Paraburkholderia xenovorans, UniProt Q13YL3)",fluorescence anisotropy,"double-stranded DNA, one strand shown",Fe(II)-CO,,binding,no binding
TGTCACGTAGATCGAAACGGCATAGACAATTACTTA (dsDNA),"ERF-D2 full length assumed (Solanum lycopersicum, UniProt A0A3Q7JX06)",EMSA,"double-stranded DNA, one strand shown",,,binding,no binding
TGTTGTGTGGAATTGTGAGCGGATAACAATTTCACACAGG (dsDNA (Escherichia coli); blunt),"lacI full length assumed D149A (Escherichia coli, UniProt P03023)",filter binding,"double-stranded DNA, one strand shown",,,binding,binds
GCAGGAGAAACACGTGTTGCCACTTT (dsDNA),HY5/CaM2 1-158; 1-149 (Solanum lycopersicum),EMSA,"double-stranded DNA, one strand shown",with: CaCl2 5 mM,,binding,binds
ATATTTGGACCTCTTTGAGGTCTTCGTTGGAAACGGGATTTCCTCATATAATGTTACACA (dsDNA),"CENPI 57-281 (Homo sapiens, UniProt Q92674)",competition,"double-stranded DNA, one strand shown",,,binding,binds
GGCCUUGCACAGUAGUCCAGCGGUAAGGGUGUAGAUCAGGCCCGUCUGUUUCUCCCCCGGAGCUCGCUCCCUUGGCUUCCCUUAUAUAUUUUAACAUCAGAAACAGACAUUAAACAUCUACUGAUCCAAUUUCGCCGGCGUACGGCAUGAUGAUCCGGCGAUGAAAAA (structured RNA),"Reverse transcriptase-like protein 275-1114 D996A (Bombyx mori, UniProt V9H052)",competition,folded RNA,,,binding,binds
CGCGCG (dsRNA; blunt self-complementary duplex),"ADAR 133-199 (Homo sapiens, UniProt P55265)",CD,"double-stranded RNA, one strand shown",,,binding,binds
TCGGGTTTCATGTACGTT (dsDNA; blunt),"rcoM2 full length assumed (Paraburkholderia xenovorans, UniProt Q13IY4)",fluorescence anisotropy,"double-stranded DNA, one strand shown",Fe(II)-CO,,binding,no binding
CTCTCTCCATTCCCTCCTCCTTTATTTCCTCTCTCCTCTCTCCCCTC (dsDNA),"C2H2-type domain-containing protein full length assumed (Triticum aestivum, UniProt A0A3B6KUA9)",EMSA,"double-stranded DNA, one strand shown",with: ZnCl2,,binding,binds
CACTATCGGAAAAAGGGCGACACGGATATGTT (ssDNA),"SAMHD1 full length assumed (Homo sapiens, UniProt Q9Y3Z3)",fluorescence anisotropy,single-stranded DNA,,,binding,binds
TCCACGATGTAGGATCCACATGAGCGCTCCTGTTACCCTG (ssDNA),"ALB 25-609 (Homo sapiens, UniProt P02768)",capillary electrophoresis,single-stranded DNA,,,binding,binds

# Some of these lines once more:
Molecule,target or system,test,test system,setting,how to read,endpoint,result
UUUUUUUUUUUUUUUUUUUUUUUUUUUUUUUUUUUUUUUU (ssRNA),"NR1I2 (Homo sapiens, UniProt O75469)",EMSA,RNA,200 nM RNA,,binding,no binding
ACCAAGCGGTATGCGGAGCCGCCGCCGCCGCCG (dsDNA; blunt),WT1 zinc finger domain 323-435 (Homo sapiens),EMSA,"double-stranded DNA, one strand shown",,,binding,no binding
CTCTCTCCATTCCCTCCTCCTTTATTTCCTCTCTCCTCTCTCCCCTC (dsDNA),"C2H2-type domain-containing protein full length assumed (Triticum aestivum, UniProt A0A3B6KUA9)",EMSA,"double-stranded DNA, one strand shown",with: ZnCl2,,binding,binds
CGCGCG (dsRNA; blunt self-complementary duplex),"ADAR 133-199 (Homo sapiens, UniProt P55265)",CD,"double-stranded RNA, one strand shown",,,binding,binds
GTGTGGTTAATATGGTGTGGTTAATATGGTGTGGTTAATATGGTGTGGTTAATATG (ssDNA),"RNJ 604-911 (Arabidopsis thaliana, UniProt Q84W56)",EMSA,single-stranded DNA,,,binding,no binding
GTGACAATGCTATTTGGCCATGTCGGTATGGTTGGCGTTAGGGGTGA (dsDNA),"DREB1A 1-238 (Oryza sativa, UniProt Q64MA1)",EMSA,"double-stranded DNA, one strand shown",,,binding,binds
TCCACGATGTAGGATCCACATGAGCGCTCCTGTTACCCTG (ssDNA),"ALB 25-609 (Homo sapiens, UniProt P02768)",capillary electrophoresis,single-stranded DNA,,,binding,binds
